Published values gathered from unrelated publications.
Compare with care: the assays were run in different laboratories. ± gives the spread as reported. Converted amounts (≈) assume the structure as drawn.

`CCCCCCCCCCCCCCCC(=O)N(C)[C@H](CO)C(=O)N[C@H](C)C(=O)NCC(=O)N(C)[C@@H]1C(=O)N[C@@H](C)C(=O)N[C@H](C(=O)O)Cc2ccc(O)c(c2)-c2cc1ccc2O[C@@H]1O[C@@H](C)[C@H](O)[C@@H](O)[C@H]1O` — result for MIC: “inactive” (Streptococcus agalactiae; COH-1).
For `COc1cc(CCC(C)=O)ccc1O`, the IC50 was over 4 µg/mL (mouse mAb 1-F12; antibody binding, indirect competitive ELISA; together with: coating antigen 2-OVA).
`CC[C@@H](C)[C@@H](NC(=O)[C@@H](C)NC(=O)[C@@H](CCCCN)NC(=O)[C@@H](CC(C)C)NC(=O)[C@@H](C)NC(=O)[C@H](NC(=O)[C@@H](Cc1c[nH]cn1)NC(=O)[C@@H](CC(C)C)NC(=O)[C@H](NC(=O)[C@H](NC(=O)[C@@H](CCCCN)NC(=O)[C@H](NC(=O)[C@@H](C)NC(=O)[C@@H](CO)NC(=O)[C@@H](CCCCN)NC(=O)[C@@H](Cc1ccccc1)NC(=O)[C@H](NC(=O)[C@@H](CCCCN)NC(=O)[C@@H](CC(C)C)NC(=O)[C@@H](Cc1ccccc1)NC(=O)[C@@H](CO)NC(=O)[C@@H](CCCCN)NC(=O)[C@@H](Cc1c[nH]c2ccccc12)NC(=O)[C@@H](CCCCN)NC(C)=O)[C@H](C)O)C(C)C)[C@H](C)O)C(C)C)[C@H](C)O)C(=O)N[C@H](CO)C(=O)N[C@H](CO)C(N)=O` gave an MIC of 0.7 µM (Acinetobacter baumannii; broth microdilution; ATCC 19606; 24 h, 37 °C).
`CCCCC/C=C/C(=O)CCc1ccc(O)c(OC)c1` has an IC50 of 0.134 µg/mL (≈ 0.485 µM) (mouse mAb 1-F12; antibody binding, indirect competitive ELISA; together with: coating antigen 4-OVA).
With `CC[C@@H](C)[C@@H](NC(=O)[C@@H](C)NC(=O)[C@@H](CCCCN)NC(=O)[C@@H](CC(C)C)NC(=O)[C@@H](CC(C)C)NC(=O)[C@H](NC(=O)[C@@H](CCCCN)NC(=O)[C@@H](CC(C)C)NC(=O)[C@@H](C)NC(=O)[C@@H](CCCCN)NC(=O)[C@@H](CCCCN)NC(=O)[C@@H](CCCCN)NC(=O)[C@@H](C)NC(=O)[C@@H](CCCCN)NC(=O)[C@@H](CO)NC(=O)[C@@H](Cc1ccccc1)NC(=O)[C@H](NC(=O)[C@@H](CCCCN)NC(=O)[C@@H](CC(C)C)NC(=O)[C@@H](Cc1ccccc1)NC(=O)[C@@H](CO)NC(=O)[C@@H](CCCCN)NC(=O)[C@@H](Cc1c[nH]c2ccccc12)NC(=O)[C@@H](CCCCN)NC(C)=O)[C@H](C)O)[C@H](C)O)C(=O)N[C@H](CO)C(=O)N[C@H](CCCCN)C(N)=O` the MIC was 0.7 µM (Acinetobacter baumannii; 1012, Mueller-Hinton broth; 24 h, 37 °C).
`N#Cc1ccc2cccc(O)c2n1` has an MIC of over 1500 µM (most tested bacterial strains; agar dilution).
For `CC(=O)[O-].O.O.[O-]c1ccc(Br)cc1C=NCCN1CCOCC1.[Zn+2]`, “inhibition zone diameter” read 15 mm (Chromobacterium violaceum; 20 µL of 100 µM per disc).
`O=c1c2ccccc2sn1-c1cc(Br)cc(Br)c1` has an MIC of 6.25 µg/mL (Candida albicans; growth, broth dilution; ATCC MYA-1003 (resistant); MIC-0).
The MIC of `O=[N+]([O-])c1c(Br)c(Cl)c2cccnc2c1O` is reported as 2 to 8 µg/mL (bacteria; panel of 19 strains, 5 species).
`Oc1c(Cl)cc(Cl)c2cccnc12` gave an MIC of 37.4 µM (Listeria monocytogenes; microbial growth, agar dilution).
The MIC of `CCCCCC(=O)O[C@H]1[C@H](C)O[C@@H](O[C@H]2[C@H](N(C)C)[C@@H](O)[C@H](O[C@H]3[C@@H](CC=O)C[C@@H](C)[C@@H](O[C@H]4CC[C@H](N(C)C)[C@@H](C)O4)/C=C/C=C/C[C@@H](C)OC(=O)C[C@@H](O)[C@@H]3OC)O[C@@H]2C)C[C@@]1(C)O` is reported as 2 to 8 µM (Staphylococcus aureus, Staphylococcus epidermidis, Bacillus subtilis; incl. MRSA; range over four strains).
`[64Cu+2].c1cnc(CNCc2ccc(CN3CCCN4CCNCCCN(CC4)CC3)cc2)nc1` gave an uptake ratio of 7.71 ± 3.36 (CXCR4; NOD/SCID mouse, tumour; 90 min; reference: U87-stb-CXCR4 over U87).
